Measurements gathered from unrelated publications.
Numbers after ± are the reported error.
Genome polyprotein NS2B-NS3 protease: Genome polyprotein, NS2B-NS3 protease (ZIKV, UniProt A0A024B7W1)
Proteasome component C5/PSMB5 chymotrypsin-like site: Proteasome component C5/PSMB5, chymotrypsin-like site (Homo sapiens, UniProt P20618+P28074)
Chain of UniProt P20618 (whole entry, looked up): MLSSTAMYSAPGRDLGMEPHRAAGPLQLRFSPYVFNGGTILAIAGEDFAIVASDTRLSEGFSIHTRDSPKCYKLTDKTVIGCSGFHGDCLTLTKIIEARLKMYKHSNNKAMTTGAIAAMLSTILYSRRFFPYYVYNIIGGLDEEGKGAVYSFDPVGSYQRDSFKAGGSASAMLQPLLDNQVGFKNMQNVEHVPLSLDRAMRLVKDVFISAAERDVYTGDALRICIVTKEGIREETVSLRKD
Chain of UniProt P28074 (whole entry, looked up): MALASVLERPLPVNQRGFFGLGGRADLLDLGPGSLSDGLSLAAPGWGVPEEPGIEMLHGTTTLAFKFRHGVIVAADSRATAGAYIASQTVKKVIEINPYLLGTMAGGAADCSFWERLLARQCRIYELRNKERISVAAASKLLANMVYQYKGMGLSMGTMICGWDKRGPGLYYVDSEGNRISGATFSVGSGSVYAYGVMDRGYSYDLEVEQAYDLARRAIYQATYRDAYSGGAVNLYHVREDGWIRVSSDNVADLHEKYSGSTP
SULT2A1: Sulfotransferase 2A1 (SULT2A1, Homo sapiens, UniProt Q06520)
Chain of UniProt Q06520 (whole entry, looked up): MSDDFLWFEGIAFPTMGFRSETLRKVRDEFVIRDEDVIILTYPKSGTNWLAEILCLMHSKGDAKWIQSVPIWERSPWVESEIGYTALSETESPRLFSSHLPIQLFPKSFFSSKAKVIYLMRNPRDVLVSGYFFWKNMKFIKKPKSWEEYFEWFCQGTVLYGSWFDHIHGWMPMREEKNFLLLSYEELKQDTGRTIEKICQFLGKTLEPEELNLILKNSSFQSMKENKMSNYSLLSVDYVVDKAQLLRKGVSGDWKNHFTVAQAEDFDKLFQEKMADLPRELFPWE
Dual specificity protein phosphatase 5: Dual specificity protein phosphatase 5 (Homo sapiens, UniProt Q16690)
Chain of UniProt Q16690 (whole entry, looked up): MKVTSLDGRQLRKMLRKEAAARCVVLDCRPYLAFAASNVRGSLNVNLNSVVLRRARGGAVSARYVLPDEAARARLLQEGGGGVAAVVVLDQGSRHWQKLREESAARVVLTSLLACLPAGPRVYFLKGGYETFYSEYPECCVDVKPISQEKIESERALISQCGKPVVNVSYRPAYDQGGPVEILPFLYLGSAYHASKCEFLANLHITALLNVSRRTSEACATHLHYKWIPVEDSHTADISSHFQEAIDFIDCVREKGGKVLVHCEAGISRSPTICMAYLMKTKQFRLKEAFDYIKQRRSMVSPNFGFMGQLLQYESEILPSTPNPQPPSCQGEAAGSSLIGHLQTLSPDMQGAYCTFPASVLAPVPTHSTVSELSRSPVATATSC
topA: DNA topoisomerase 1 (topA, Escherichia coli, UniProt P06612)
Chain of UniProt P06612 (whole entry, looked up): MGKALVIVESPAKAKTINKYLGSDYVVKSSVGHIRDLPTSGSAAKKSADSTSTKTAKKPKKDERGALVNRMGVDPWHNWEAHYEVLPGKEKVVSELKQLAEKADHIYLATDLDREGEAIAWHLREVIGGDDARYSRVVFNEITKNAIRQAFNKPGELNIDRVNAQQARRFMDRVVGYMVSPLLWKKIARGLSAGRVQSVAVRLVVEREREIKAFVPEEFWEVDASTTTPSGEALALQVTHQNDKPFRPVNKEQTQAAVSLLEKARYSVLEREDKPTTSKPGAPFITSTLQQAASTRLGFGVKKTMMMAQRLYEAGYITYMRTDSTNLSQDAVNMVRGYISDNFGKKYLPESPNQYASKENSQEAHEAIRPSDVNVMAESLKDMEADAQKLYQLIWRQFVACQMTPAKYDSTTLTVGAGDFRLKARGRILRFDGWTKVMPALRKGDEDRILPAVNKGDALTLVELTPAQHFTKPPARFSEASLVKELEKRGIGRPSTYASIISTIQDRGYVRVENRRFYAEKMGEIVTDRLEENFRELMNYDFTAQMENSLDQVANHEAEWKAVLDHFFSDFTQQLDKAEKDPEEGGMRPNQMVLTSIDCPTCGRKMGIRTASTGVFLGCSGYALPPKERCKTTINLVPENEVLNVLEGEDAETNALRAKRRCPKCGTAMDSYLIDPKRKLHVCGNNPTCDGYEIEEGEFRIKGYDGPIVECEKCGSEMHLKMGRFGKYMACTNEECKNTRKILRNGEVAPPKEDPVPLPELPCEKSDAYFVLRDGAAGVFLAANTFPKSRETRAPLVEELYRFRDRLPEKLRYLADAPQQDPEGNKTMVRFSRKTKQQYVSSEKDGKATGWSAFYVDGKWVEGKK
gag-pol reverse transcriptase RNase H: Gag-Pol polyprotein, reverse transcriptase RNase H (gag-pol, Human immunodeficiency virus 1, UniProt P03366)
ALPL: Alkaline phosphatase, tissue-nonspecific isozyme (ALPL, Homo sapiens, UniProt P05186)
Chain of UniProt P05186 (whole entry, looked up): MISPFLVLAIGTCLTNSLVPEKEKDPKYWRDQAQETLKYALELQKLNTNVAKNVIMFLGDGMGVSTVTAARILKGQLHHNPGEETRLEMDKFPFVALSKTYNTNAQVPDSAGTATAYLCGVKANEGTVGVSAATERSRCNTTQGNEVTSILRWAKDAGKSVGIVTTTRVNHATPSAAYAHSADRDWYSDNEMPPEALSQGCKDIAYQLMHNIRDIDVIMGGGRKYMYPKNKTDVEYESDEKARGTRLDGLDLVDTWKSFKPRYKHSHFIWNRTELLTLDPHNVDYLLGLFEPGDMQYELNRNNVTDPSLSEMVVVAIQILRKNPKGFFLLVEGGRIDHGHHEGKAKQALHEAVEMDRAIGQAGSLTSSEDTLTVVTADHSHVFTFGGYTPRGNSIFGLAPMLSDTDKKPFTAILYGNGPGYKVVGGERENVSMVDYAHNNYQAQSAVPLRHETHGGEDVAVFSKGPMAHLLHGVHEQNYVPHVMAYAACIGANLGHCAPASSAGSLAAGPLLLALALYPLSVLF
Chain of UniProt P47746 (whole entry, looked up): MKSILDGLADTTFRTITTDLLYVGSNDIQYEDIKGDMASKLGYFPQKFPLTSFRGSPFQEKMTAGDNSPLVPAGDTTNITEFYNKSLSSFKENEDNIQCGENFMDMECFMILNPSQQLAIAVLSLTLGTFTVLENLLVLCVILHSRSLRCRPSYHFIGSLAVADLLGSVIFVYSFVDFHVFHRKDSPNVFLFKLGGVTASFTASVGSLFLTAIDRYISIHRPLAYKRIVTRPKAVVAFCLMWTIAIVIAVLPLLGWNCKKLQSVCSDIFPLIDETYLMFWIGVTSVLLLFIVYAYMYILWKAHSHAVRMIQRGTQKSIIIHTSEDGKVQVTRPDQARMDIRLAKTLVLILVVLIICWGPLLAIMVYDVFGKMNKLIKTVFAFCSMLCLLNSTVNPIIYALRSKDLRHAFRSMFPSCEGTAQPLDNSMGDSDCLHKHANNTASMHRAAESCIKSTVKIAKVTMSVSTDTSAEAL
Chain of UniProt P05091 (whole entry, looked up): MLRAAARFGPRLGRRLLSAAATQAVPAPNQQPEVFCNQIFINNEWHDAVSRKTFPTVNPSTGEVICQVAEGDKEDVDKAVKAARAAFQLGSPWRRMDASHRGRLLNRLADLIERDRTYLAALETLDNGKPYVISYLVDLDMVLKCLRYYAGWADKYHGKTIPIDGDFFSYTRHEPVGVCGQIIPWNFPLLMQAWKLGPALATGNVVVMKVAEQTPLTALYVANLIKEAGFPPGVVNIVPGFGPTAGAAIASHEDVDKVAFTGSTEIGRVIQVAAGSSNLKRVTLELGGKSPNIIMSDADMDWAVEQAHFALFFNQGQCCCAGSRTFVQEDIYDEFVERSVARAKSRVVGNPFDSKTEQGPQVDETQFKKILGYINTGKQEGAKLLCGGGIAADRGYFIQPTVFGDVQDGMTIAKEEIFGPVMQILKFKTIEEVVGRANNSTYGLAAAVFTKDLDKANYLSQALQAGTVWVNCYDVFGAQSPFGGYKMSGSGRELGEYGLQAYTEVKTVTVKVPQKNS
Chain of UniProt Q8I6U4 (whole entry, looked up): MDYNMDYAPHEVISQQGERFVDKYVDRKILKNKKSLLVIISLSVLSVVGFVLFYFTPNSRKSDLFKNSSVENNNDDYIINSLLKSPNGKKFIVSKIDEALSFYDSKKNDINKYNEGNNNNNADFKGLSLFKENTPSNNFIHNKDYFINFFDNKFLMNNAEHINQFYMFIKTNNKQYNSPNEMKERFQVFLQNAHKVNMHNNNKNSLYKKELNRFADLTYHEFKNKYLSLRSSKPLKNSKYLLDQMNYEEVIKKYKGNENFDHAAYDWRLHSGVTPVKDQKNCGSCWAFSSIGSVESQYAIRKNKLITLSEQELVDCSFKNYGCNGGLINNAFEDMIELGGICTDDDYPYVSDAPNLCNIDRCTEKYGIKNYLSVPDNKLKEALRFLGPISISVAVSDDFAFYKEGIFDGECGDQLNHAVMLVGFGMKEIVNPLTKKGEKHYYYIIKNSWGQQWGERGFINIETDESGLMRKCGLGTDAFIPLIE
Chain of UniProt Q6NXK8 (whole entry, looked up): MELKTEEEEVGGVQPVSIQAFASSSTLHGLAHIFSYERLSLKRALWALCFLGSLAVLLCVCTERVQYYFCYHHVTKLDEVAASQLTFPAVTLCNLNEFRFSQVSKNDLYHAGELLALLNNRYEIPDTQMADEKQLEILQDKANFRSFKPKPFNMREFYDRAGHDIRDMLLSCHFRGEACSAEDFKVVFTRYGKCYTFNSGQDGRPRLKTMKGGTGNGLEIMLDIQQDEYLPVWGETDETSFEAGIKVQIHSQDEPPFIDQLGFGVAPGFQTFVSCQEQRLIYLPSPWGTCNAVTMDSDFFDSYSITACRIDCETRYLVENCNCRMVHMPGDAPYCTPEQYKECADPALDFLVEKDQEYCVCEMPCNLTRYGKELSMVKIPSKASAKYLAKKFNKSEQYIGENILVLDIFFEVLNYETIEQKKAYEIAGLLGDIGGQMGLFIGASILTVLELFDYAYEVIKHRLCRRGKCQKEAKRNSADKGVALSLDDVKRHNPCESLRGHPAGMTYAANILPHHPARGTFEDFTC
Chain of UniProt P0A2T1 (whole entry, looked up): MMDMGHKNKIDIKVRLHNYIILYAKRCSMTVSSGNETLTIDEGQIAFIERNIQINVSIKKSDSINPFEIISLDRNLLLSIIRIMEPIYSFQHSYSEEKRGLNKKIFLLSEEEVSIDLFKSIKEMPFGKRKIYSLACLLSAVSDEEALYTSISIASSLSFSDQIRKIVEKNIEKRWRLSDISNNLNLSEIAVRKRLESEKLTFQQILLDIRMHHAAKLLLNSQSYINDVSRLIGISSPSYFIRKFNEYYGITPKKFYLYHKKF

Molecule	target	test	system	setting	IC50 [nM]
COc1cc(O)c2c(=O)cc(-c3ccccc3)oc2c1	NQO1 (Homo sapiens, UniProt P15559)	enzyme activity, inhibitor			232000
CC[C@H](C)[C@H](NC(=O)[C@H](Cc1ccc(O)cc1)NC(=O)[C@H](CC(=O)O)NC(=O)[C@@H](NC(=O)[C@H](CC(C)C)NC(=O)[C@@H](N)Cc1ccccc1)[C@@H](C)O)C(=O)N1CCC[C@H]1C(=O)NCC(=O)N[C@@H](C)C(=O)O	HLA class I histocompatibility antigen, A alpha chain, allele A*02:03 (Homo sapiens, UniProt P04439)	peptide binding, radiolabelled peptide competition		together with: radiolabelled standard peptide	7.8
O=C(NC1CCc2ccccc2C1)c1ccc(-c2ccccc2)cc1 (stereo not shown)	TRPM8 (Homo sapiens, UniProt Q7Z2W7)	calcium signal, antagonist, fluorescence			52
Phoxim oxon	Carboxylesterase 1C (Ces1c, Rattus norvegicus, UniProt P10959)	enzyme activity, inhibitor	rat, postnatal day 12, serum	together with: p-nitrophenyl valerate	0.9
Nc1cc(N)c(N=Nc2ccc(S(=O)(=O)Nc3nccs3)cc2)cc1N=Nc1ccc(S(=O)(=O)Nc2nccs2)cc1	Genome polyprotein NS2B-NS3 protease	enzyme activity, inhibitor	Zika virus	pH 8.0, together with: 20 µM Pyr-RTKR-AMC	1120
CC(C)C[C@H](NC(=O)OCc1ccccc1)C(=O)N[C@@H](CC(C)C)C(=O)N[C@@H](CC(C)C)C(=O)C(=O)Nc1ccccc1-c1ccccc1	Proteasome component C5/PSMB5 chymotrypsin-like site	enzyme activity in cells, inhibitor			4700
Oc1ccc(-c2ccc(Cl)cc2Cl)cc1Cl	SULT2A1	enzyme activity, inhibitor, radiometric		pH 7.4	4900
O=C1OC2(c3cc(Cl)c(O)cc3Oc3cc(O)c(Cl)cc32)c2ccccc21	Dual specificity protein phosphatase 5	phosphatase activity		60 min, without DTT, together with: pNPP	180000 ± 4500
NC(=O)CI	guanylate kinase (Plasmodium vivax)	enzyme activity, inhibitor			36500
CCCCCc1cc(OC(=O)c2ccc(O)cc2O)cc(O)c1C(=O)O	topA	DNA relaxation, inhibitor		30 min, 37 °C, together with: supercoiled pBAD/Thio plasmid	500000
CC(C)c1ccc(O)c(=O)c(O)c1	gag-pol reverse transcriptase RNase H				~150
CC[C@H](C)[C@H](NC(=O)[C@H](Cc1ccc(O)cc1)NC(=O)[C@H](CC(C)C)NC(=O)[C@H](C)N)C(=O)N1CCC[C@H]1C(=O)N1CCC[C@H]1C(=O)N[C@@H](Cc1ccc(O)cc1)C(=O)N[C@@H](CCC(=O)O)C(=O)N[C@@H](CC(C)C)C(=O)O	HLA class I histocompatibility antigen, A alpha chain, allele A*02:01 (Homo sapiens, UniProt P04439)	binding, competitive radioligand binding		48 h, 37 °C, together with: radiolabelled FLPSDYFPSV 1 nM	586
CN(C)c1nc(N)c(C(=O)NC(=N)N)nc1Cl	Asic1 (Mus musculus, UniProt Q6NXK8)	ASIC current, whole-cell patch clamp	mouse cortical neurons	pH 6.0	10700
Cc1sc2nc(-c3cccc(O)c3)[nH]c(=O)c2c1C	gag-pol reverse transcriptase RNase H	RNase H activity, inhibitor, fluorescent RNA/DNA hybrid			> 50000
C/C(N)=N\C(=N/S(=O)(=O)c1ccc(C(F)(F)F)cc1)N1C[C@H](c2ccccc2)C(c2ccc(Cl)cc2)=N1	Cnr1 (Mus musculus, UniProt P47746)	GTPγS binding, antagonist, radiometric		cell membranes	40
Clc1ccc2c(OCc3cn(-c4ccccc4)nn3)ccnc2c1	FP2A (Plasmodium falciparum, UniProt Q8I6U4)	enzyme activity, inhibitor, fluorescence		pH 5.5, with preincubation	58500
CN1CCN(CCOc2ccc(Cl)cc2C(=O)Nc2ccc([N+](=O)[O-])cc2Cl)CC1	Genome polyprotein, NS2B-NS3 interaction (dengue virus type 2, UniProt P29990)	NS2B-NS3 interaction, inhibitor, split luciferase complementation	dengue virus 2		13200
NCc1ccc(-c2ncc(OCC3CCNCC3)nc2-c2ccc(N3CCNCC3)nc2)cc1	Genome polyprotein NS2B-NS3 protease	inhibitor	Zika virus		650
COc1ccc2c(c1OP(=O)(O)O)CCCC=C2c1cc(C(F)(F)F)cc(C(F)(F)F)c1	Tubulin alpha-1B chain/TUBB2B (Bos taurus, UniProt P81947+Q6B856)	tubulin polymerization, inhibitor, turbidimetry		20 min, 30 °C, together with: 10 µM tubulin	> 20000
CC1=NN(c2ccccc2)C(=S)/C1=C/Nc1ccc(/N=N/c2ccccc2)cc1	srtA (Staphylococcus aureus, UniProt Q2FV99)	enzyme activity, inhibitor			< 5000
C=C(C)[C@@H]1CCC(C)=C[C@H]1c1c(O)cc(CCCCC)cc1O	UGT1A9 (Homo sapiens, UniProt O60656)	inhibitor	HEK293 overexpressing UGT1A9, recombinant UGT1A9 microsomes	pH 7.4, together with: acetaminophen glucuronidation	73 ± 11
Cc1c(Cc2ccccc2)c(=O)oc2cc(OS(C)(=O)=O)ccc12	ALDH2 (Homo sapiens, UniProt P05091)	enzyme activity, inhibitor, NADH formation		pH 7.5, 25 °C, 1% DMSO, together with: propionaldehyde 100 µM, NAD+ 200 µM	> 100000
O=C1c2ccccc2C(=O)c2oc(-c3cccnc3)nc21	USP8 (Homo sapiens, UniProt P40818)	deubiquitinase activity, inhibitor, MALDI-TOF DUB		60 min, 30 °C, 35 min pre-incubation, together with: diubiquitin substrate	210

Molecule	target	test	system	setting	IC50 [nM]
C[C@@H]1C[C@H]2[C@@H]3CCC4=CC(=O)C=C[C@]4(C)[C@@]3(Cl)[C@@H](O)C[C@]2(C)[C@@]1(OC(=O)c1ccco1)C(=O)CCl	ABCC1 (Homo sapiens, UniProt P33527)	efflux, inhibitor, flow cytometry	SupT1 cells overexpressing ABCC1	together with: 500 nM DiSC3	10200 ± 9300
Cn1cc(-c2nc(OCC3CCNCC3)cnc2-c2ccc(CN)cc2)cn1	Genome polyprotein NS2B-NS3 protease	inhibitor	Zika virus		24600
Cc1cc(-c2cc(-c3cc(C)c(O)c(C)c3)c(-c3cc(C)c(O)c(C)c3)[se]2)cc(C)c1O	Estrogen receptor (ESR1, Homo sapiens, UniProt P03372)	antagonist	HEK293T	together with: estradiol 10 nM	870
CCOP(=O)(OCC)Oc1nc(Cl)c(Cl)cc1Cl	muscarinic receptors, rat	radioligand displacement	adult cortex membranes	90 min, 21 °C, together with: 1 nM [3H]oxotremorine-M	7
COc1ccc(N(C(=O)Oc2c(C)cccc2C)c2ccnc(Nc3ccc(N4CCN(C)CC4)cc3)n2)c(OC)c1	Proto-oncogene tyrosine-protein kinase Src, YEEI variant (SRC, Homo sapiens, UniProt P12931)	enzyme activity		SRC-YEEI with pFAK peptide excess, together with: ATP 100 µM	1360
CCCCN1C=C(c2ccc3ccccc3n2)C(C)c2ccccc21 (stereo not shown)	virF (Shigella flexneri, UniProt P0A2T1)	reporter gene expression, inhibitor	Escherichia coli, virB-lacZ reporter strain	3 h, 37 °C, 6.2% DMSO, together with: 1 mM IPTG	> 100000
CN1[C@H]2CC[C@@H]1[C@@H](C(=O)N1CCCC1)[C@@H](c1ccc(I)cc1)C2	SLC6A2 (Homo sapiens, UniProt P23975)	transporter uptake, inhibitor, radiometric			797
NCc1ccc(-c2ncc(NCC3CCNCC3)nc2C(=O)Nc2ccc(I)cc2)cc1	Genome polyprotein NS2B-NS3 protease	inhibitor	Zika virus		12600
C=C(NC(=O)C(=C)NC(=O)c1csc(C2=N[C@@H]3c4csc(n4)[C@H]4NC(=O)c5csc(n5)[C@H]([C@](C)(O)[C@@H](C)O)NC(=O)[C@H]5CSC(=N5)/C(=C/C)NC(=O)[C@H]([C@@H](C)O)NC(=O)c5csc(n5)[C@]3(CC2)NC(=O)[C@H](C)NC(=O)C(=C)NC(=O)[C@H](C)NC(=O)[C@H]([C@@H](C)CC)N[C@@H]2C=Cc3c([C@H](C)O)cc(nc3[C@H]2O)C(=O)O[C@@H]4C)n1)C(N)=O	Proteasome subunit beta type-7, in 20S proteasome (PSMB7, Homo sapiens, UniProt Q99436)	trypsin-like activity, inhibitor	purified 20S proteasome	15 min preincubation, 37 °C, together with: Boc-Leu-Arg-Arg-AMC substrate	950 ± 150
COc1cc(/C=C(\C#N)C(=O)Nc2nnc(C(F)(F)F)s2)ccc1OCc1ccc(C(F)(F)F)cc1C(F)(F)F	PGC-1α/ERRα (human)	reporter gene, antagonist, luciferase reporter		18 h, 2000 cells/well	3440
COc1ccc(C)cc1S(=O)(=O)Nc1cccnc1	ALPL	enzyme activity, inhibitor, colorimetric OD405		HTS library sample, together with: 0.5 mM pNPP	708
O=C(O)c1ccccc1-c1c2ccc(=O)c([As]3SCCS3)c-2oc2c([As]3SCCS3)c(O)ccc12	PTPN1 (Homo sapiens, UniProt P18031, A122C/P87C)	enzyme activity, inhibitor	crude Escherichia coli lysate	120 min, 37 °C, together with: pNPP	2200
COc1ccc(-c2nc3cc4nc5ccccc5nc4cc3[nH]2)cc1[N+](=O)[O-]	Genome polyprotein, protease (dengue virus type 2, UniProt P29990)	enzyme activity, inhibitor, fluorescence		pH 8.5	85900
CCCCCCCC/C=C\CCCCCCCC(=O)NCCO	MAOA (Homo sapiens, UniProt P21397)	enzyme activity, inhibitor, fluorescence			> 100000
O=C(Nc1cccc([N+](=O)[O-])c1)c1ccc([N+](=O)[O-])cc1Cl	topA	enzyme activity, inhibitor			> 250000
COc1ccc(C[C@H](NC(=O)[C@H](C)NC(=O)CN2CCOCC2)C(=O)N[C@@H](CC(C)C)C(=O)C(=O)Nc2ccccc2)cc1	Proteasome component C5/PSMB5 chymotrypsin-like site	enzyme activity in cells, inhibitor			419
C/C=C(\NC(=O)[C@H](C)NC(=O)CCC)C(=O)N[C@@H]1C(=O)N[C@@H](CC(C)C)C(=O)N[C@H]2CC[C@@H](O)N(C2=O)[C@@H](Cc2ccccc2)C(=O)N(C)[C@@H](Cc2ccc(O)cc2)C(=O)N[C@@H](C(C)C)C(=O)O[C@@H]1C	Chymotrypsinogen A (Bos taurus, UniProt P00766)	enzyme activity, inhibitor		with preincubation	350
O=C1C2CC=CCC2C(=O)N1c1n[nH]c(Cc2ccccc2)n1 (stereo not shown)	ALPL	enzyme activity, inhibitor, luminescence		together with: 300 µM CDP-star, 100 mM DEA	346 ± 7
O=C([O-])c1ccccc1-c1c2cc(Br)c(=O)cc-2oc2[c]([Hg+])c([O-])c(Br)cc12.[Na+].[Na+].[OH-]	Dual specificity protein phosphatase 5	phosphatase activity		60 min, 1 mM DTT, together with: pNPP	19700 ± 600
O=C1NC(=S)N(c2ccc(F)cc2)C(=O)/C1=C/c1ccco1	Cell death protein 3 (ced-3, Caenorhabditis elegans, UniProt P42573)	enzyme activity, inhibitor	crude E. coli lysate	together with: 20 µM Ac-DEVD-AMC	11100
Cn1c(NN=Cc2cc3ccccc3nc2Cl)nc2ccccc21	Luciferin 4-monooxygenase (Photinus pyralis, UniProt P08659)	enzyme activity, inhibitor	purified enzyme	together with: ATP and D-luciferin at Km (10 µM)	70 ± 10
CC(C)C[C@H](NC(=O)[C@H](CO)NC(=O)[C@H](Cc1c[nH]c2ccccc12)NC(=O)[C@H](Cc1ccc(O)cc1)NC(=O)[C@H](CC(=O)O)NC(=O)[C@H](CC(C)C)NC(=O)CN)C(=O)O	Transcriptional regulator ComR (Streptococcus mutans serotype c, UniProt Q8DWI6)		Streptococcus mutans		> 50000
O=S(=O)(O)Oc1ccc(-c2ccc(Cl)cc2)c(Cl)c1	SULT2A1	enzyme activity, inhibitor, radiometric		pH 7.4	45800

Some of these lines once more:
Molecule	target	test	system	setting	IC50 [nM]
Nc1cc(N)c(N=Nc2ccc(S(=O)(=O)Nc3nccs3)cc2)cc1N=Nc1ccc(S(=O)(=O)Nc2nccs2)cc1	Genome polyprotein NS2B-NS3 protease	enzyme activity, inhibitor	Zika virus	pH 8.0, together with: 20 µM Pyr-RTKR-AMC	1120
CC(C)C[C@H](NC(=O)OCc1ccccc1)C(=O)N[C@@H](CC(C)C)C(=O)N[C@@H](CC(C)C)C(=O)C(=O)Nc1ccccc1-c1ccccc1	Proteasome component C5/PSMB5 chymotrypsin-like site	enzyme activity in cells, inhibitor			4700
Oc1ccc(-c2ccc(Cl)cc2Cl)cc1Cl	SULT2A1	enzyme activity, inhibitor, radiometric		pH 7.4	4900
